Published values from different studies.
Compare with care: the assays were run in different laboratories. Values joined by “and” are separate records of one study, mostly repeats; a detail may differ. Numbers after ± are the reported error.
CES2: Cocaine esterase (CES2, Homo sapiens, UniProt O00748)
Chain of UniProt O00748 (whole entry, looked up): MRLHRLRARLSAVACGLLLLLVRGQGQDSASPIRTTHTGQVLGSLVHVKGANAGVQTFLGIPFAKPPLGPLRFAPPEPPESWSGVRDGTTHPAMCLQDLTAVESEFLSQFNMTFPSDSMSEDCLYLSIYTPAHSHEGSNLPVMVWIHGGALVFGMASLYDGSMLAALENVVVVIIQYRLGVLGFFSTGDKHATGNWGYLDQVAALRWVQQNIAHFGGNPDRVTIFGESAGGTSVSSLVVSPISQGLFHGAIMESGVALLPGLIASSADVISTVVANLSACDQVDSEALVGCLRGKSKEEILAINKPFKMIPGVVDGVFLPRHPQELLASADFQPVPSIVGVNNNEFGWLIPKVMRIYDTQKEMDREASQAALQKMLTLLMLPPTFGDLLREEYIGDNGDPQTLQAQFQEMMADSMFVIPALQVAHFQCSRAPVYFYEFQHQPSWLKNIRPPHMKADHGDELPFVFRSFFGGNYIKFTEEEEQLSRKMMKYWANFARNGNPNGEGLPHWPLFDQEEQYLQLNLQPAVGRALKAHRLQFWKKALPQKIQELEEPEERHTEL
HDAC8: Histone deacetylase 8 (HDAC8, Homo sapiens, UniProt Q9BY41)
Chain of UniProt Q9BY41 (whole entry, looked up): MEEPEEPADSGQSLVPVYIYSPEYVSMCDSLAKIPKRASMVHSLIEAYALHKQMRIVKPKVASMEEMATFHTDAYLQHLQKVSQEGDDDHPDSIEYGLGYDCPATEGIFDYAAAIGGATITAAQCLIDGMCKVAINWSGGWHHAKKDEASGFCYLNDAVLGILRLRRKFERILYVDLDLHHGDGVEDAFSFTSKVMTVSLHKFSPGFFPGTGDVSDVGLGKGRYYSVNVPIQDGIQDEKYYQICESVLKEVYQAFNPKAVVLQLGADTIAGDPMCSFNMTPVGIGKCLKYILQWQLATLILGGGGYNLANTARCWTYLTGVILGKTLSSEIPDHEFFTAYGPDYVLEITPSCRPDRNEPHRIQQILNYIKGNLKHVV
PTGS1: Prostaglandin G/H synthase 1 (PTGS1, Ovis aries, UniProt P05979)
Chain of UniProt P05979 (whole entry, looked up): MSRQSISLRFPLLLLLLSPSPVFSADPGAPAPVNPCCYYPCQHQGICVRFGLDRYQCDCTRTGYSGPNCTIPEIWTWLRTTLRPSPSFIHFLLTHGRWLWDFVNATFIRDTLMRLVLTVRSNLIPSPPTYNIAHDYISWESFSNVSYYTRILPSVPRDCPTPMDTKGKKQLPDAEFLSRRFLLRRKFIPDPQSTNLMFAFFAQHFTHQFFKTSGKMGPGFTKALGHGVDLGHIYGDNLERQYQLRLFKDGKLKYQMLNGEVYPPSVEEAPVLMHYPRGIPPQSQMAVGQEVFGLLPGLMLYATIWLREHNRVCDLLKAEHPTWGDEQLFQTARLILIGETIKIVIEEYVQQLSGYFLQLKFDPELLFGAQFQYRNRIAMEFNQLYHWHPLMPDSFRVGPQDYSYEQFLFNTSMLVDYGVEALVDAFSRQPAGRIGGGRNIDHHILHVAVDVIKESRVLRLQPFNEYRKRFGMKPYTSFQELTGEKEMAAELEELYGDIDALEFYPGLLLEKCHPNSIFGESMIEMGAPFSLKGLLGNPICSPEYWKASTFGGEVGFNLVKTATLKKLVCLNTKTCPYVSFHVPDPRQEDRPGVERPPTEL
CPL: CPL (Toxoplasma gondii, UniProt Q6DMN0)
HDAC3: Histone deacetylase 3 (HDAC3, Homo sapiens, UniProt O15379)
Chain of UniProt O15379 (whole entry, looked up): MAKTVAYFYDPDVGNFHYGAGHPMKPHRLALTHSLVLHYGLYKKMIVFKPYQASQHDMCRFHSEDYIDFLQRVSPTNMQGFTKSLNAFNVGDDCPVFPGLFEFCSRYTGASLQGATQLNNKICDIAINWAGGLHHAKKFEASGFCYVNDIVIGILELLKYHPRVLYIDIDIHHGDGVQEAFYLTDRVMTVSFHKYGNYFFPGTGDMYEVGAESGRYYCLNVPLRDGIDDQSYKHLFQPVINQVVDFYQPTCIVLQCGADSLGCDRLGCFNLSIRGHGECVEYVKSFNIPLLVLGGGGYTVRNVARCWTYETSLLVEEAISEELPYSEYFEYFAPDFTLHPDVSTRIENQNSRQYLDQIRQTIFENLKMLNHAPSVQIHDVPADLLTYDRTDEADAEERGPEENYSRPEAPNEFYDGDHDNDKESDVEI
Chain of UniProt P97689 (whole entry, looked up): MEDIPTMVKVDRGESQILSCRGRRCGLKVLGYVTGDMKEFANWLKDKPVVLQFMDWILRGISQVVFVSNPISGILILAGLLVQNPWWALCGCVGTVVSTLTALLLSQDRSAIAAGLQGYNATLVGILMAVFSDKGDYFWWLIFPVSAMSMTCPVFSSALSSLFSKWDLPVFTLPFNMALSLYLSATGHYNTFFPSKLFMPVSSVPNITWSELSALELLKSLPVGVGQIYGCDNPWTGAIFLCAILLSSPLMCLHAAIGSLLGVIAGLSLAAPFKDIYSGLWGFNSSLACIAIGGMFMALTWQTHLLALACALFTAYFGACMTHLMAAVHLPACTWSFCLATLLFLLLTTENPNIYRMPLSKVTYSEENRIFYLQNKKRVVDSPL
Chain of UniProt Q96RR4 (whole entry, looked up): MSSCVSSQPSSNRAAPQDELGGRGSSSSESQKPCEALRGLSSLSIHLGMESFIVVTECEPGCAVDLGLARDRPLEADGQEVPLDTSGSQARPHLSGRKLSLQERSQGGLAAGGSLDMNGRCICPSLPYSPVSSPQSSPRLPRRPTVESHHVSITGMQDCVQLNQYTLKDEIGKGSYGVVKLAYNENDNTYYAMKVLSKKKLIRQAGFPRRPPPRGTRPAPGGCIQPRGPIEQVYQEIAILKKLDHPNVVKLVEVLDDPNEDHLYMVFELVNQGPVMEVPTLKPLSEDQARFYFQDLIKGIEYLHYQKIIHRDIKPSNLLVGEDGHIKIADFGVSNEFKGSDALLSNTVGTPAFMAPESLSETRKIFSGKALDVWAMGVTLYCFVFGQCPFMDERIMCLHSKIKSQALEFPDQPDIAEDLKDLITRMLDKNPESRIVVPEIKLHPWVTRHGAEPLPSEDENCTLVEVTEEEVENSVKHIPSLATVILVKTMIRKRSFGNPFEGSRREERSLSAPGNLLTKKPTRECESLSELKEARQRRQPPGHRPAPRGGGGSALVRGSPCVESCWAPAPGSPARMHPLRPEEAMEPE
Chain of UniProt P35354 (whole entry, looked up): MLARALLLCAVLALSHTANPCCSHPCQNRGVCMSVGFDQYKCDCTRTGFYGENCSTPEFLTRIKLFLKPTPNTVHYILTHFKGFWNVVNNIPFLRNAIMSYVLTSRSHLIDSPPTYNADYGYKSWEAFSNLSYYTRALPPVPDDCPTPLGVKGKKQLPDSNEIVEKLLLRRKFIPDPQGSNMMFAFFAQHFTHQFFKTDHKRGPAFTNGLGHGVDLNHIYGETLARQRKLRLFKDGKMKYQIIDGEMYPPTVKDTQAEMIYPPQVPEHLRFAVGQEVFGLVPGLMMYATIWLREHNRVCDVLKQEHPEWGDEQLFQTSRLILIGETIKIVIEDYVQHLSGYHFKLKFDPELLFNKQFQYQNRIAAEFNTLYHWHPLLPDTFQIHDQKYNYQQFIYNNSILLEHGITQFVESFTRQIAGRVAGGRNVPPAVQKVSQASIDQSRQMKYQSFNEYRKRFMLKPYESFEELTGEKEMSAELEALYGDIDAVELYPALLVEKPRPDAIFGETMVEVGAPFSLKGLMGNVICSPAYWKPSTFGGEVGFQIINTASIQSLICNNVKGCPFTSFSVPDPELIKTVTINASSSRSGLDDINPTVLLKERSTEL
Chain of UniProt A0QSG6 (whole entry, looked up): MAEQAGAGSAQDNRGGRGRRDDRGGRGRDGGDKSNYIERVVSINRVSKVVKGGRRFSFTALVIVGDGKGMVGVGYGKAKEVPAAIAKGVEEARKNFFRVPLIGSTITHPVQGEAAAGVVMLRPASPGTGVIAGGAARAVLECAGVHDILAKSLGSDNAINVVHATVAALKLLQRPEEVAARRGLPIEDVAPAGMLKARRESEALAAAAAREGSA
Chain of UniProt O75475 (whole entry, looked up): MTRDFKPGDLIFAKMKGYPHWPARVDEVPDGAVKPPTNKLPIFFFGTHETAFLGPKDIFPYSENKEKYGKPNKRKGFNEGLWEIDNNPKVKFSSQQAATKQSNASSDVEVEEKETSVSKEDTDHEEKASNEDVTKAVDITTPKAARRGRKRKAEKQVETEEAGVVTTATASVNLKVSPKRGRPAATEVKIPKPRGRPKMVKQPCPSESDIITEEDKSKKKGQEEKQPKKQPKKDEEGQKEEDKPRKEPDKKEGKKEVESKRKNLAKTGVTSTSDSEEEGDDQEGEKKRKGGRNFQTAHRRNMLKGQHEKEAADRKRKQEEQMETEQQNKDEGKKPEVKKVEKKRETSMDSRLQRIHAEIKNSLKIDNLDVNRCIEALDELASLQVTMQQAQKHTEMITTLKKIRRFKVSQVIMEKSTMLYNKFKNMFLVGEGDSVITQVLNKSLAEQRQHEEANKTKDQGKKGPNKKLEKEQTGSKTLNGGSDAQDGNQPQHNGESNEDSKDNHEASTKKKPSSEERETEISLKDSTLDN
Chain of UniProt P07237 (whole entry, looked up): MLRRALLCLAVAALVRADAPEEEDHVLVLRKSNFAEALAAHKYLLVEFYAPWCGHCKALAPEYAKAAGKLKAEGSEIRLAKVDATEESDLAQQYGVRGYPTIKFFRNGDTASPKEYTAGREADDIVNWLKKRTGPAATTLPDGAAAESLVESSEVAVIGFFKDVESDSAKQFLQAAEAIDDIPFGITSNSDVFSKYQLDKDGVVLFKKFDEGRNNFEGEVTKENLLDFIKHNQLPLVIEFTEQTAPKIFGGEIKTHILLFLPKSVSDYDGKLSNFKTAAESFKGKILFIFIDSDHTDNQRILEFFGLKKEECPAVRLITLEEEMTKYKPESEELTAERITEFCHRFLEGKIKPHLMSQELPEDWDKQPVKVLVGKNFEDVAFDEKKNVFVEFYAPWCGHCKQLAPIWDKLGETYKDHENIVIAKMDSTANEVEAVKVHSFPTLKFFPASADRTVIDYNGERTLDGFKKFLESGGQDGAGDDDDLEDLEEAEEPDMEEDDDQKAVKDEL
Chain of UniProt P0ABQ4 (whole entry, looked up): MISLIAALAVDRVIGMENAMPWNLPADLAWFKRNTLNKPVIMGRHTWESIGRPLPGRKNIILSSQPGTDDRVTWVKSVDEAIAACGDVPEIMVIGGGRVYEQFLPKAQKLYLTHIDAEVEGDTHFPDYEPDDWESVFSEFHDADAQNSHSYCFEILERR

Cc1cccc2c1NC(=O)C2=Cc1ccc(-c2cccc(C(=O)N3CCCN(C)CC3)c2)o1 (mixture of isomers) — IC50 (PIM3 (Homo sapiens, UniProt Q86V86); enzyme activity, inhibitor): 0.00988 µM
CN[C@@H]1[C@H](O)[C@H](NC)[C@H]2O[C@]3(O)[C@H](O[C@@H]2[C@H]1O)O[C@H](C)C[C@@]3(O)CNCc1ccc(F)cc1 — IC50 (Small ribosomal subunit protein uS5, 70S ribosome (rpsE, Mycolicibacterium smegmatis, UniProt A0QSG6); translation, inhibitor, in vitro translation, luciferase; Mycobacterium smegmatis ribosomes): 0.74 µg/mL
CNC(=[Se])NC — IC50 (Urea transporter 1 (Slc14a1, Rattus norvegicus, UniProt P97689); urea transport, inhibitor; rat erythrocytes; 15 min): > 25000 µM
CC(=O)N[C@H]1CSC(=O)[C@H](Cc2ccccc2)NC(=O)[C@H](CC(C)C)NC(=O)[C@H](CO)NC(=O)[C@H](CO)NC1=O — IC50 (Accessory gene regulator protein C (Staphylococcus aureus, UniProt O33590)): 0.000616 µM
CC[C@@H]1C(=O)N(C)c2cnc(Nc3ccc(C(=O)NCCCC[C@H](NC(=O)COCCOCCNC(=O)COCCOCCNC(=O)COCCOCCNC(=O)COCCOCCNC(=O)[C@@H](NC(=O)[C@H](CO)NC(=O)[C@H](Cc4cncn4CCCCCCCCc4ccccc4)NC(=O)[C@H](CC(C)C)NC(=O)[C@@H]4CCCN4C(C)=O)[C@@H](C)OP(=O)(O)O)C(N)=O)cc3OC)nc2N1C1CCCC1 — IC50 (CAMKK2 (Homo sapiens, UniProt Q96RR4); enzyme activity, inhibitor): 0.17 µM
COc1ccc(F)cc1S(=O)(=O)Nc1cnc2c(c1)C(=O)NCCO2 — IC50 (Intestinal-type alkaline phosphatase (Homo sapiens, UniProt P09923); enzyme activity, inhibitor, absorbance; pH 7.5): 1.56 µM
CC(C)[C@@H]1NC(=O)[C@H](CC(=O)O)NC(=O)[C@H](C)NC(=O)[C@H](CCC(=O)O)NC(=O)CNC(=O)[C@H](CCC(=O)O)NC(=O)CNC(=O)[C@@H](N)CSSC[C@@H](C(N)=O)NC1=O — IC50 (WD repeat-containing protein 5, WBM site (WDR5, Homo sapiens, UniProt P61964); binding, inhibitor): > 100 µM
O=C[C@H](C[C@H]1CCNC1=O)NC(=O)[C@H](Cc1ccccc1)NC(=O)OCc1ccccc1 — IC50 (Genome polyprotein, 3C protease (Human enterovirus D68, UniProt Q68T42); 3C protease activity, inhibitor, FRET): 0.11 ± 0.02 µM
COc1cc(/N=N/C(C#N)C#N)cc(OC)c1OC — IC50 (Mycosin-1 (Mycolicibacterium thermoresistibile, UniProt G7CDQ2); enzyme activity, inhibitor): 95 µM
CCOc1ccc2nc3cc(N)ccc3c(N)c2c1 — IC50 (CES2; enzyme activity, inhibitor, absorbance): 41.6 µM
C/C=C1/CN2CCc3c([nH]c4ccccc34)[C@@H]2C[C@@H]1/C(=C\OC)C(=O)OC — IC50 (HTR6 (Homo sapiens, UniProt P50406); ligand displacement, radioligand; cell membranes): 12.2 µM
OCC[S+](CCO)C[C@@H](O)[C@@H](O)CO — IC50 (Si (Rattus norvegicus, UniProt P23739); enzyme activity, inhibitor; pH 6): > 296 µM
CCCCCCCCCC1N=C(N)N=C(N)N1c1ccc(Cl)cc1 (racemic) — IC50 (folA (Escherichia coli, UniProt P0ABQ4); enzyme activity, inhibitor): 5 µM
COc1ccc(N=Nc2cccc(NC(=O)CCCCCCC(=O)NO)c2)cc1 — IC50 (HDAC8; enzyme activity, inhibitor; cis isomer, irradiated): 0.445 ± 0.107 µM
COC(=O)C1CN1S(=O)(=O)c1ccc(C)cc1 (stereo not shown) — IC50 (P4HB (Homo sapiens, UniProt P07237); enzyme activity, inhibitor, absorbance; pH 7.6): 5.3 µM
COc1ccc(S(=O)(=O)N2CCN(c3nc4ccc(Cl)cc4o3)CC[C@H]2C)cc1 — IC50 (HCRTR1 (Homo sapiens, UniProt O43613); calcium signal, antagonist, fluorescence): 2.29 µM
COc1cccc(/C=C/C(=O)c2cccc3ccccc23)c1OC — IC50 (PTGS1; enzyme activity, inhibitor, ELISA): < 25 µM and 21.1 µM
CC(C)[C@H]1NC(=O)[C@H](CO)NC(=O)c2cc3cc(c2)C(=O)NC[C@H](NC(=O)[C@H](Cc2c[nH]cn2)NC(=O)[C@H](Cc2ccc(C(F)(F)P(=O)(O)O)cc2)NC(=O)[C@@H]2CCCN2C1=O)C(=O)N[C@@H](Cc1ccccc1)C(=O)N[C@@H](Cc1ccc2ccccc2c1)C(=O)N[C@@H](CCCNC(=N)N)C(=O)N[C@@H](CCCNC(=N)N)C(=O)N[C@@H](CCCNC(=N)N)C(=O)N[C@@H](CCCNC(=N)N)C(=O)N[C@H](C(=O)N[C@@H](CCCCN)C(N)=O)CNC3=O — IC50 (PTPN2 (Homo sapiens, UniProt P17706); enzyme activity, inhibitor, absorbance): 0.5 µM
CC[C@H](C)[C@H](NC(=O)[C@H](CC(N)=O)NC(=O)[C@H](CC(N)=O)NC(=O)[C@@H](N)CCCNC(N)=O)C(=O)N1C[C@H](n2cc(-c3ccc(N)cc3)nn2)C[C@H]1C(=O)N[C@H](Cc1c[nH]c2ccccc12)C(=O)N[C@@H](CO)C(N)=O — IC50 (Envelope glycoprotein gp160, gp120 (env, Human immunodeficiency virus type 1 group M subtype B, UniProt P35961); HIV-1): > 100 µM
O=C(Nc1ccccc1)c1ccccc1O — IC50 (HDAC8; enzyme activity, inhibitor): > 10 µM
CC(C)CCN(Cc1cccnc1)c1nc(C#N)nc(N2CCOCC2)n1 — IC50 (CPL; enzyme activity, inhibitor, Z-L-R-AMC hydrolysis fluorescence): 0.039 µM
CC(C)C[C@@H]1NC(=O)[C@H](CCCCN)NC(=O)[C@H](CC(C)C)NC(=O)[C@@](C)(NC(=O)[C@H](Cc2ccccc2)NC(=O)[C@H](Cc2ccc(O)cc2)NC(=O)[C@H](C)NC(=O)[C@@H](NC(=O)c2ccc3c(c2)C(=O)OC32c3ccc(O)cc3Oc3cc(O)ccc32)[C@@H](C)O)CCCC=CCCC[C@@](C)(C(=O)NCC(=O)N[C@@H](CCCNC(=N)N)C(=O)N[C@@H](Cc2c[nH]c3ccccc23)C(N)=O)NC1=O — IC50 (PC4 and SFRS1-interacting protein, with HIV integrase (Homo sapiens, UniProt O75475); LEDGF/p75-integrase interaction, inhibitor): 25 µM
CC(C)[C@@H]1NC(=O)[C@]2(C)CSC(=N2)c2cccc(n2)CNC(=O)C[C@@H](/C=C/CCS)OC1=O — IC50 (Histone deacetylase 3, with NCoR2 (HDAC3, Homo sapiens, UniProt O15379); inhibitor): 0.0179 µM
CCCCCCCCCCCC1=C(O)C(=O)C=C(NCCN2CCOCC2)C1=O — IC50 (PTGS1; enzyme activity, inhibitor, ELISA): 3.18 µM
O=C(CCCCCCC(=O)Nc1cccc(N=Nc2ccccc2)c1)NO — IC50 (HDAC3; enzyme activity, inhibitor; trans isomer): 0.019 ± 0.009 µM
Cc1cc(Nc2nc(C[C@@]3(C(=O)O)CCN(Cc4cccc(Cl)c4F)[C@H](C)C3)cc(C)c2F)n[nH]1 — IC50 (Aurora kinase A (AURKA, Homo sapiens, UniProt O14965); phosphorylation, Western blot, refers to: p-AURKA Thr288; NCI-H446; 16 h): 0.00208 µM
CC(C)[C@@H](NC(=O)[C@@H](C)c1cccc(C(=O)c2ccccc2)c1)C(=O)N[C@H](CCC(=O)O)C(=O)N[C@@H](C(=O)N[C@H](CCC(=O)O)C(=O)O)C(C)C — IC50 (PTGS2 (Homo sapiens, UniProt P35354); enzyme activity, inhibitor, fluorescence): 5.8 µM
CC(C)CCN(Cc1ccc(F)cc1)c1nc(C#N)nc(N2CCOCC2)n1 — IC50 (CPL; enzyme activity, inhibitor, Z-L-R-AMC hydrolysis fluorescence): 0.034 µM
CC[C@H](C)[C@H](NC(=O)[C@H](CCCNC(=N)N)NC(=O)[C@H](CO)NC(=O)[C@H](CC(C)C)NC(=O)[C@H](CCCNC(=N)N)NC(=O)[C@H](CCSC)NC(=O)[C@H](C)N)C(=O)N[C@H](C(=O)N[C@@H](CCCNC(=N)N)C(=O)N[C@@H](CC(=O)O)C(=O)N[C@@H](Cc1ccccc1)C(=O)N[C@@H](CC(C)C)C(=O)N[C@@H](CC(C)C)C(=O)N[C@@H](CCC(N)=O)C(=O)N[C@@H](CCCNC(=N)N)C(=O)N[C@@H](CCCCN)C(=O)N[C@@H](CCCCN)C(=O)O)[C@@H](C)CC — IC50 (histidine kinase ComD (Streptococcus pneumoniae serotype 4, UniProt A0A0H2US84); Streptococcus pneumoniae): > 1 µM
C=CC1CN2CCC1CC2C(O)c1c(-c2ccc(N=Nc3ccccc3)cc2)cnc2ccc(OC)cc12 (stereo not shown) — IC50 (SCN5A (Homo sapiens, UniProt Q14524, F1760A); whole-cell patch clamp; HEK293T expressing mutant; pH 7.3, in darkness): > 100 µM
C=C1C(=O)N[C@@H](C)C(=O)N(C)[C@@H](C)C(=O)N[C@@H]([C@H](OC(=O)[C@@H](NC(C)=O)[C@H](O)C(C)C)C(C)C)C(=O)N(C)[C@@H]([C@@H](C)OC)C(=O)O[C@H](C)[C@H](NC(C)=O)C(=O)O[C@H](Cc2ccccc2)C(=O)N1C — IC50 (Guanine nucleotide-binding protein subunit alpha-11 (Homo sapiens, UniProt P29992); inverse agonist, refers to: IP1; HEK293 with wild-type Gα11; 30 min, basal): 0.00631 µM
N#Cc1nc(N2CCOCC2)nc(N(Cc2ccc(F)cc2)CC2CCNCC2)n1 — IC50 (CPL; enzyme activity, inhibitor, Z-L-R-AMC hydrolysis fluorescence): 1.2 µM
C=CCOC(=O)NCCCC[C@H](NC(=O)[C@H](Cc1ccc(O)cc1)NC(=O)CNC(=O)CNC(=O)[C@@H](NC(=O)[C@H](CO)NC(=O)[C@@H]1CCCN1C(=O)[C@H](C)NC(=O)[C@H](CO)NC(=O)[C@H](CCSC)NC(=O)[C@H](CCCNC(=N)N)NC(=O)[C@H](C)NC(=O)[C@H](C)NC(=O)[C@H](CCCCN)NC(C)=O)[C@@H](C)O)C(=O)NN — IC50 (EZH2 (Homo sapiens, UniProt Q15910); enzyme activity, inhibitor, radiometric): 56 µM
O=C(CCCCCCC(=O)Nc1ccccc1N=Nc1ccccc1)NO — IC50 (HDAC3; enzyme activity, inhibitor; cis isomer, irradiated): 0.073 ± 0.02 µM
NC1=NN=Cc2ccccc2[O][V](=[O])[O]1.c1cnc2c(c1)ccc1cccnc12 — IC50 (PTPN12 (Homo sapiens, UniProt Q05209); enzyme activity, inhibitor): 4.28 µM
CCCCCCc1ccc(Nc2ccccc2C(=O)O)cc1 — IC50 (Androgen receptor (AR, Homo sapiens, UniProt P10275); reporter gene, antagonist, MMTV-Luc reporter; MDA-kb2; 20 h, together with: 8 nM DHT (EC90)): 77.2 ± 17.7 µM
CC(C)C[C@H]1NC(=O)[C@H](CCCNC(=N)N)NC(=O)[C@H](CCCCN)NC(=O)[C@H](CC(=O)O)NC(=O)[C@H](CCCCN)NC(=O)[C@H](CO)NC1=O — IC50 (Disintegrin and metalloproteinase domain-containing protein 8 (Homo sapiens, UniProt P78325); CD23 shedding, inhibitor, ELISA; COS-7, co-transfected with CD23): 0.57 ± 0.023 µM
CN(CCO)c1ccc(/C=C/C(=O)C(c2ccccc2)c2ccccc2)cc1 — IC50 (PTGS1; enzyme activity, inhibitor, ELISA): 35.7 µM
Cc1[nH]c2ccccc2c1C(c1cccc(Cl)c1)C(C#N)C#N (stereo not shown) — IC50 (CES2; enzyme activity, inhibitor; human liver microsomes; pH 7.4, 37 °C, together with: fluorescein diacetate): 2.64 ± 0.35 µM
CC(=O)N[C@@H](CCCNC(=N)N)C(=O)N[C@@H](Cc1ccc(O)cc1)C(=O)N[C@@H](CCCNC(=N)NC(=O)NCCCCN)C(=O)N[C@@H](CC(C)C)C(=O)N[C@@H](CCCNC(=N)N)C(=O)N[C@H](Cc1ccc(O)cc1)C(N)=O — IC50 (NPY4R (Homo sapiens, UniProt P50391); β-arrestin 1 recruitment, antagonist; HEK293T; together with: 3 nM human pancreatic polypeptide): 1.31 ± 0.39 µM

A few entries again:
CCOc1ccc2nc3cc(N)ccc3c(N)c2c1 — IC50 (CES2; enzyme activity, inhibitor, absorbance): 41.6 µM
Cc1cc(Nc2nc(C[C@@]3(C(=O)O)CCN(Cc4cccc(Cl)c4F)[C@H](C)C3)cc(C)c2F)n[nH]1 — IC50 (Aurora kinase A (AURKA, Homo sapiens, UniProt O14965); phosphorylation, Western blot, refers to: p-AURKA Thr288; NCI-H446; 16 h): 0.00208 µM
